Earlier results that unrelated publications cite.
Lines come from different studies, so protocols differ. Values joined by “and” are separate records of one study, mostly repeats; a detail may differ. Numbers after ± are the reported error. ≈ marks a conversion by molar mass, not a printed value.

C[C@@H](c1ncncc1F)[C@](O)(Cn1cncn1)c1ccc(F)cc1F  solubility (water): < 1000 µg/mL
Nc1cccc2c1C(=O)N(C1CCC(=O)NC1=O)C2=O (centres unmarked)  febrile neutropenia incidence (relapsed refractory multiple myeloma patients; dose not given, grade 3-4): 2%
CN1CCC[C@@H]1CCO[C@](C)(c1ccccc1)c1ccc(Cl)cc1  crossover pressure (supercritical CO2): 140 to 160 bar
CN(C)C(=O)c1cc2cnc(Nc3ccc(N4CCNCC4)cn3)nc2n1C1CCCC1  grade ≥3 anemia incidence (patients; dose not given, monotherapy): 3%
CN(C)C(=O)N[C@H]1CC[C@H](CCN2CCN(c3cccc(Cl)c3Cl)CC2)CC1  AUC(0-24 h) (Japanese patients; 6 mg once daily, Day 84): 358 ng·h/mL
C#C[C@]1(CO)O[C@@H](n2cnc3c(N)nc(F)nc32)C[C@@H]1O  plasma Cmax decrease (human; 30 mg, added: high-fat meal; reference: fasted): 49%
CC1(C)O[C@@H]2[C@@H](CO[C@@]3(COS(N)(=O)=O)OC(C)(C)O[C@@H]23)O1  solubility (water): < 1000 µg/mL
C[C@H](C(=O)NCc1ccccc1)N1C(=O)CCC1=O  protective index (CD-1 mice, MES-induced seizures; intraperitoneal): > 7.5
CNC[C@H](O)c1cccc(O)c1  free Cmax (human): 3.08 nM
CC[C@H](C)[C@H](NC(=O)[C@H](Cc1ccccc1)NC(=O)[C@H](CCC(=O)O)NC(=O)[C@H](CCCCNC(=O)COCCOCCNC(=O)COCCOCCNC(=O)CC[C@H](NC(=O)CCCCCCCCCCCCCCCCC(=O)O)C(=O)O)NC(=O)[C@H](C)NC(=O)[C@H](C)NC(=O)[C@H](CCC(N)=O)NC(=O)CNC(=O)[C@H](CCC(=O)O)NC(=O)[C@H](CC(C)C)NC(=O)[C@H](Cc1ccc(O)cc1)NC(=O)[C@H](CO)NC(=O)[C@H](CO)NC(=O)[C@@H](NC(=O)[C@H](CC(=O)O)NC(=O)[C@H](CO)NC(=O)[C@@H](NC(=O)[C@H](Cc1ccccc1)NC(=O)[C@@H](NC(=O)CNC(=O)[C@H](CCC(=O)O)NC(=O)C(C)(C)NC(=O)[C@@H](N)Cc1cnc[nH]1)[C@@H](C)O)[C@@H](C)O)C(C)C)C(=O)N[C@@H](C)C(=O)N[C@@H](Cc1c[nH]c2ccccc12)C(=O)N[C@@H](CC(C)C)C(=O)N[C@H](C(=O)N[C@@H](CCCNC(=N)N)C(=O)NCC(=O)N[C@@H](CCCNC(=N)N)C(=O)NCC(=O)O)C(C)C  peripheral volume of distribution (human reference subject; dose not given, body weight 85 kg, population PK model): 4.1 L
C[C@]12C[C@H](O)[C@H]3[C@@H](CCC4=CC(=O)CC[C@@]43C)[C@@H]1CC[C@@H]2C(=O)CO  log KOA: > 5
CCC(=O)NC[C@@H]1C[C@H]1c1cccc2c1CCO2  free Cmax (plasma): 23.5 nM
CC(C)(C)c1cc(C(C)(C)C)c(NC(=O)c2c[nH]c3ccccc3c2=O)cc1O  elimination half-life (non-pregnant cystic fibrosis patients): 15 h
CCN(CC)CCNC(=O)c1c(C)[nH]c(/C=C2\C(=O)Nc3ccc(F)cc32)c1C  solubility (water): < 1000 µg/mL
C[C@@H]1CN(c2c(F)c(N)c3c(=O)c(C(=O)O)cn(C4CC4)c3c2F)C[C@H](C)N1  free Cmax (human): 4400 nM
COC(=O)N[C@H](C(=O)N1CCC[C@H]1c1nc(-c2ccc3c(c2)O[C@@H](c2ccccc2)n2c-3cc3cc(-c4c[nH]c([C@@H]5CCCN5C(=O)[C@@H](NC(=O)OC)C(C)C)n4)ccc32)c[nH]1)C(C)C  unchanged drug excreted in faeces (bile duct-cannulated rats; oral, dose not given): 61%
CCCCCCCCCCCCCCCC(=O)N[C@@H](CCC(=O)NCCCC[C@@H]1NC(=O)[C@H]([C@@H](C)CC)NC(=O)[C@@H](NC(=O)[C@@H]2CCCN2C(=O)[C@H](Cc2ccccc2)NC(=O)[C@H](Cc2c[nH]cn2)NC(=O)[C@@H](NC(=O)[C@H](CC(=O)O)NC(=O)CC(C)C)[C@@H](C)O)CSSC[C@@H](C(=O)N[C@@H](CCCCN)C(N)=O)NC(=O)CNC(=O)[C@H](CCCCN)NC(=O)[C@H](CO)NC(=O)[C@H](CCCNC(=N)N)NC(=O)[C@@H]2CCCN2C(=O)[C@H](CCC(=O)O)NC(=O)[C@H](Cc2ccccc2)NC1=O)C(=O)O  elimination half-life (cynomolgus monkey; subcutaneous, 0.3 mg/kg): ~24 h
Nc1nc(O)c2ncn(COC(CO)CO)c2n1  oral bioavailability (human; 1000 mg three times daily): 8.53%
Cc1c(C(=O)NN2CCCCC2)nn(-c2ccc(Cl)cc2Cl)c1-c1ccc(Cl)cc1  solubility (water): < 1000 µg/mL
Cc1cccc(Nc2ccccc2C(=O)O)c1C  solubility (FaSSIF; literature value): 60 µg/mL (≈ 249 µM)
Clc1ccccc1C(c1ccccc1)(c1ccccc1)n1ccnc1  Cmax (plasma; concentration not given, total, steady state): 3360 nM
Cn1cncc1-c1c(F)cncc1NC(=O)c1c(N)nn2cc(F)cnc12  grade ≥3 anaemia incidence (patients with advanced solid tumours; 130 mg once daily, first treatment cycle): 11%
CC(=O)c1c(C)c2cnc(Nc3ccc(N4CCNCC4)cn3)nc2n(C2CCCC2)c1=O  crossover pressure (supercritical CO2): 160 to 270 bar
C[C@@H]1CCO[C@H]2Cn3cc(C(=O)NCc4ccc(F)cc4F)c(=O)c(O)c3C(=O)N12  trough concentration change (human, plasma; 50 mg daily; reference: normal renal function, lower): 85%
Cc1cc(-c2nccc3c2ccn3CC(=O)Nc2ccc(-c3cnccn3)cn2)ccn1  AUC(0-24 h), total (dog; 10 mg/kg/day, 1 month, repeat dosing): 4.7 µM·h
CCC(C)n1ncn(-c2ccc(N3CCN(c4ccc(OCC5COC(Cn6cncn6)(c6ccc(Cl)cc6Cl)O5)cc4)CC3)cc2)c1=O (centres unmarked)  Cmax (plasma; concentration not given, total, steady state): 900 nM
C[C@@H](O[C@H]1OCCN(Cc2n[nH]c(=O)[nH]2)[C@H]1c1ccc(F)cc1)c1cc(C(F)(F)F)cc(C(F)(F)F)c1  solubility (FaSSIF; literature value): 5.4 µg/mL (≈ 10.1 µM)
C=CC[C@@H]1/C=C(\C)C[C@H](C)C[C@H](OC)[C@H]2O[C@@](O)(C(=O)C(=O)N3CCCC[C@H]3C(=O)O[C@H](/C(C)=C/[C@@H]3CC[C@@H](O)[C@H](OC)C3)[C@H](C)[C@@H](O)CC1=O)[C@H](C)C[C@@H]2OC  diarrhoea incidence (human; concentration not given, clinical): 72%
Nc1nc(N)c2nc(-c3ccccc3)c(N)nc2n1  crossover pressure (supercritical CO2): 180 to 200 bar
CN(C)C(=O)c1cc2cnc(Nc3ccc(N4CCNCC4)cn3)nc2n1C1CCCC1  dose excreted (human, urine; oral, 600 mg, radiolabelled; reference: dose): 22.6%
C[Si](C)(C)O[Si](C)(C)O[Si](C)(C)O[Si](C)(C)C  log KOW (HPLC retention correlation; 1-octanol/water; 25 °C): 5.4
Cn1c(Cn2ccc(C(F)(F)F)c(Oc3cc(Cl)cc(C#N)c3)c2=O)n[nH]c1=O  dose excreted unchanged (human, urine; single 50 mg): 6%
CC/C(=C(\c1ccc(O)cc1)c1ccc(OCCNC)cc1)c1ccccc1  concentration decrease (human CYP2D6 homozygous null; dose not given; reference: CYP2D6 wild type): 74%
O=C(O)c1ccccc1  HSA binding, literature value (human serum albumin; concentration not given): 34.3%
CN(C)CCCC1(c2ccc(F)cc2)OCc2cc(C#N)ccc21 (centres unmarked)  free Cmax (human): 113 nM
Nc1nc(=O)n([C@@H]2C=C[C@H](CO)O2)cc1F  oral bioavailability (human; 5 mg): 32%
CCN1CCN(Cc2ccc(Nc3ncc(F)c(-c4cc(F)c5nc(C)n(C(C)C)c5c4)n3)nc2)CC1  Cmin (human; 200 mg twice daily multiple dose, tablet): 133 ng/mL
COc1ccccc1Oc1c(NS(=O)(=O)c2ccc(C(C)(C)C)cc2)nc(-c2ncccn2)nc1OCCO  volume of distribution at steady state (human; dose not given): 0.16 L/kg
c1ccc2c(c1)ccc1ccccc12  amount in tissue (zebrafish embryos, whole embryo; 445.6 ng/well, 48 hpf, single exposure): 22.9 ng/well and 18.5 ng/well and 20 ng/well
COCCc1ccc(OCC(O)CNC(C)C)cc1 (centres unmarked)  Vd (human): 300 to 350 L
C[Si]1(C)O[Si](C)(C)O[Si](C)(C)O[Si](C)(C)O[Si](C)(C)O1  log KAW (0.13 0.24 µg/L in water, 24.6 °C): 3.13
C#C[C@]1(O)CC[C@H]2[C@@H]3CCC4=CC(=NO)CC[C@@H]4[C@H]3CC[C@@]21CC (mixture of isomers)  Cmax, mean (human, fasted; 0.25 mg norgestimate, single dose, reference formulation): 1.98 ng/mL
CC(=O)c1cc(C(=O)N[C@@H](C)Cn2ccc(-c3ccc(C#N)c(Cl)c3)n2)[nH]n1  pKa (monoprotic base): 2.4
CC(C)NC(=O)COc1cccc(-c2nc(Nc3ccc4[nH]ncc4c3)c3ccccc3n2)c1  absolute bioavailability (human; oral, 200 mg): 64%
CCCCC[C@H](O)CC[C@@H]1[C@H]2Cc3cccc(OCC(=O)O)c3C[C@H]2C[C@H]1O  AUC(0-inf) (non-Japanese healthy adults; 36 µg): 0.61 ± 0.18 ng·h/mL
NS(=O)(=O)Cc1noc2ccccc12  solubility (water): < 1000 µg/mL
Nc1ccn([C@@H]2O[C@H](CO)[C@@H](O)C2(F)F)c(=O)n1  grade 1-4 thrombocytopenia incidence (metastatic pancreatic cancer patients; dose not given): 70%
CNCc1cc(-c2ccccc2F)n(S(=O)(=O)c2cccnc2)c1  AUC(0-inf) (human; 20 mg, multiple dose): 186 ng·h/mL
CN1C(N)=N[C@](C)(c2cc(NC(=O)c3ccc(F)cn3)ccc2F)CS1(=O)=O  free Cmax (plasma): 87 nM
Cc1cn([C@H]2C=C[C@@H](CO)O2)c(=O)[nH]c1=O  oral bioavailability (monkey; 30 mg/kg): 77%
Cc1cc(C)c(CNC(=O)c2cc(Cl)c3c(c2C)O[C@@](C)([C@H]2CC[C@H](N(C)C)CC2)O3)c(=O)[nH]1  urinary excretion unchanged (human; oral, 200 mg single; reference: dose): 10%
COCCc1ccc(OCC(O)CNC(C)C)cc1 (centres unmarked)  AUC(0-24 h) (human fasted; 200 mg multiple doses, day 7, mean): 1560 ng·h/mL
Cc1nc(NC(=O)N2CCC[C@H]2C(N)=O)sc1-c1ccnc(C(C)(C)C(F)(F)F)c1  increase in Cmax (human; oral, 300 mg single dose, added: high-fat high-calorie meal; reference: fasted): 84%
C[C@@H](Oc1cc(-c2cnn(C3CCNCC3)c2)cnc1N)c1c(Cl)ccc(F)c1Cl  adverse event incidence (measured: vomiting; treatment-naive ALK-positive NSCLC patients; dose not given, monotherapy trial): 46%
CCOc1nc2cccc(C(=O)O)c2n1Cc1ccc(-c2ccccc2-c2nnn[nH]2)cc1  solubility (water): < 1000 µg/mL
CCN1CCN(Cc2ccc(Nc3ncc(F)c(-c4cc(F)c5nc(C)n(C(C)C)c5c4)n3)nc2)CC1  serum creatinine increase (healthy human subjects; dose not given, 24 h post-dose; reference: baseline, maximum mean): 20 to 35%
C=C1[C@H](CO)[C@@H](O)C[C@@H]1n1cnc2c(=O)[nH]c(N)nc21  oral bioavailability (human): 70%
CC(C)n1c(Nc2cccnc2)nc2cnc(Nc3ccc(N4CCN(C)CC4)cc3)nc21  accumulation ratio of Cmax (human relapsed or refractory AML; 20 to 310 mg/day, multiple doses): 0.6
O=C(CCC(C(=O)[O-])N1CCN(C(CCC(=O)NCC(O)CO)C(=O)[O-])Cc2cccc(n2)CN(C(CCC(=O)NCC(O)CO)C(=O)[O-])CC1)NCC(O)CO.[Gd+3] (centres unmarked)  dissociation half-life: 480 h

Some of these lines once more:
CC(C)n1c(Nc2cccnc2)nc2cnc(Nc3ccc(N4CCN(C)CC4)cc3)nc21  accumulation ratio of Cmax (human relapsed or refractory AML; 20 to 310 mg/day, multiple doses): 0.6
CNC[C@H](O)c1cccc(O)c1  free Cmax (human): 3.08 nM
Nc1nc(=O)n([C@@H]2C=C[C@H](CO)O2)cc1F  oral bioavailability (human; 5 mg): 32%
C[Si]1(C)O[Si](C)(C)O[Si](C)(C)O[Si](C)(C)O[Si](C)(C)O1  log KAW (0.13 0.24 µg/L in water, 24.6 °C): 3.13
